Experimental data collected from several papers.
Lines come from different studies, so protocols differ.
seM lacks anchor domain: seM lacks anchor domain (Streptococcus equi)

`IgG7 K382Q (Equus caballus)` has a Ka of 2.91e+06 M⁻¹ (seM lacks anchor domain; SPR).
For `HSP90 fragment E566A (Plasmodium falciparum)`, “subunits per oligomer” read 2 (itself; mass photometry).
`COc1ncncc1-c1cn([C@@H]2O[C@](F)(CO[P@@](=O)(N[C@@H](C)C(=O)OC(C)C)Oc3ccccc3)[C@@H](OC(=O)C(C)C)[C@H]2OC(=O)C(C)C)cn1` has an IC50 of 11.5 µM (Zaire ebolavirus; viral replication, reporter virus; Huh-7; 72 h).
`FC(F)(F)c1cc(NC(=S)N/N=C/c2ccccn2)cc(C(F)(F)F)c1` gave an inhibition of 75% (MERS-CoV spike VSV pseudovirus; pseudovirus entry; 10 µM).
`HSP90 fragment D545A (Plasmodium falciparum)`: “subunits per oligomer” 2 (itself; mass photometry).
With `YMLDLQPEV` the IFN-γ release was 230 pg/mL (HPV16 E7-specific T-cell line; ELISA; peptide, supernatant; concentration not given, 24 h, added: peptide-pulsed autologous B cells).
The Ka of `IgG7 M252K (Equus caballus)` is reported as 153000 M⁻¹ (seM lacks anchor domain; SPR).
`TLHEYMLDV` gave an IFN-γ release of 95.3 pg/mL (HPV16 E7-specific T-cell line; ELISA; peptide, supernatant; concentration not given, 24 h, added: peptide-pulsed autologous B cells).
With `COc1ncncc1-c1cn([C@@H]2O[C@](F)(CO[P@@](=O)(N[C@@H](C)C(=O)OC(C)C)Oc3ccccc3)[C@@H](O)[C@H]2O)cn1` the IC50 was greater than 100 µM (Zaire ebolavirus; viral replication, reporter virus; Huh-7; 72 h).

Repeated from above:
For `HSP90 fragment E566A (Plasmodium falciparum)`, “subunits per oligomer” read 2 (itself; mass photometry).
